Results of several laboratories.
A part holds a random share of what one study measured. Changes are numbered by the printed parent chain.

Study 1
Target: Ras GTPase-activating protein-binding protein 1, RRM domain (G3BP1, Homo sapiens, UniProt Q13283)
Chain of UniProt Q13283 (whole entry, looked up): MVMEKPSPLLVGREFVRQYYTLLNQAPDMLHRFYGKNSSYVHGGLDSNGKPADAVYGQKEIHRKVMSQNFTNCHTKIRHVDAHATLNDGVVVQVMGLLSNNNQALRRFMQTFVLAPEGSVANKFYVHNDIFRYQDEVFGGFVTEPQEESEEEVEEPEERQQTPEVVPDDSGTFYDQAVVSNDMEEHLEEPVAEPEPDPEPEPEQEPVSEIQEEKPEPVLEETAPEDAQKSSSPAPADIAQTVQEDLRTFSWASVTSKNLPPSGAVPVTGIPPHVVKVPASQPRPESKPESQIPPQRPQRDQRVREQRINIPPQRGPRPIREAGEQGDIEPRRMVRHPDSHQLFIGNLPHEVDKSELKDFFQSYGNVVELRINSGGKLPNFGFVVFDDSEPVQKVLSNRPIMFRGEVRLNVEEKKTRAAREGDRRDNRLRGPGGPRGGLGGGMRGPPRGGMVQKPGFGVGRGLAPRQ
Method: RNA Bind-n-Seq
Molecule type: RNA
Medium: in vitro
Tested at: 1 µM
Setting: whole 134-nt RNA, ends assumed
With: 150 mM KCl
Reference: input library
Reading: higher = stronger binding
All sequences stand within: GGGAGUUCUACAGUCCGACGAUC … UGGAAUUCUCGGGUGUCAAGG
`GCAGGAAGUAAAAAAAAAUGGAAAUGCUUCGGAUAGUGGCAGGGGUGGGGGUUGCUAAGGAAAGGGUGGGAUGGGAGUGGGUAAAGAGUU` has a log2 enrichment of 1.29.
With `UAACUUUACAGGAGGAUCUGAUGGAUAUGGCAGUGGACGUGGAUUUGGGGAUGGCUAUAAUGGGUAUGGAGGAGGACCUGGAGGUGGCAA` the log2 enrichment was -0.818.
`UAGUCACCUACUGCCACCUUCGAAAAACACGGAGAGCACCUACCCAGAGGAGAAGGUAGAUUUGGAGUAAGCCGCCGUCGACAUAAUUCC` has a log2 enrichment of -0.0143.
For `GCAUGAAGUAAAAACAAAUGGAAAUGCUUCGGAUAGUGGCAGGGGUGGGGGUUGCUAAGGAAAGGGUGGGAUGGGAGUGGGUAAAGAGUU`, the log2 enrichment was 0.837.
With `CUCAAGUCCUGUGCUACACAUCGUAUGUACCGAAUCGGAGGGGAGGGGAGGGGAAAGUAUUAUGUUACGCCGUUCGGAUCUGCACUUCCA` the log2 enrichment was 0.428.
The log2 enrichment of `UGGGAGGUGGAUUUUGUUUAUUUUUUUAGCUCAUUUCCAGGGGGGGGAAUUUUUUUUUAAUAUGUGUCAUGAAUAAAGUUGUUUUUGAAA` is reported as 1.57.
`UGGCCCUGGUGGCAUGCGGGGAGGAAGAGGUGGCCUCAUGGAUCGUGGUGGUCCCGGUGGAAUGUUCAGAGCUGGCCGUGGUGGAGACAG` gave a log2 enrichment of 2.27.
The log2 enrichment of `UGGGAGGUCGAUUUUGUUUAUUUUUUUAGCUCAUUUCCAGGGGUGGGAAUUUUUUUUUAAUAUGUGUCAUGAAUAAAGUUGUUUUUGAAA` is reported as 1.35.

Study 2
Target: Interferon regulatory factor 7, full length, phosphomimetic (IRF7, Homo sapiens, UniProt Q92985, residues 1-503, S471D/S472D/S475D/S476D/S477D/S483D/S484D/S487D)
Chain of UniProt Q92985 (whole entry, unmodified, looked up): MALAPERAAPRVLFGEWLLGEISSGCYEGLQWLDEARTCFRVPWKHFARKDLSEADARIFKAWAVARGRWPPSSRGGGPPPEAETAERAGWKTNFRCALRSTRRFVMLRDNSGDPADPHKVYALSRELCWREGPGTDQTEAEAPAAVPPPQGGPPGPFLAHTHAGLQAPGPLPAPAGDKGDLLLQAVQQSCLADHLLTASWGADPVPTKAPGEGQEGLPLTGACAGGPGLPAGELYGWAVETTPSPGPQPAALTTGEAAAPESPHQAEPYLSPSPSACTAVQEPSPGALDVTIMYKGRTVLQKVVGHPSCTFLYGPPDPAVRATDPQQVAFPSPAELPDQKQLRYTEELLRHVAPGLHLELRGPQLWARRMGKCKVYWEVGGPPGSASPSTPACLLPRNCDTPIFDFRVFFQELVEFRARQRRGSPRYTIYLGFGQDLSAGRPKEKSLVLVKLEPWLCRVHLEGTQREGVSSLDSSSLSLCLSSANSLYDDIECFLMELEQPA
Method: protein-binding microarray
Molecule type: double-stranded DNA, one strand shown
Medium: in vitro
Tested at: 2200 nM top
Setting: 60-bp whole probe
With: salmon DNA 0.4 mg/ml
Reference: random background probes
Reading: higher = stronger binding
All sequences stand within: GCCTAGCAC … GTCTTGATTCGCTTGACGCTGCTG
`TTAGGTTTTGGGTTTCGGTTAGTGCTA` — result for “fitted relative affinity”: 4.95 z-score.
`GACGGTATCCTACAGCTGACGTGCTAG` — result for “fitted relative affinity”: 0.471 z-score.
`TTAGATTTCAGTATCGATGAGTGCTAG` — result for “fitted relative affinity”: 0.54 z-score.
`GACGGTTTCGACACTGGGGAGGTGCTA`: “fitted relative affinity” 2.55 z-score.
Under “fitted relative affinity”, `GACGGACTGGACACTGGGTACGTGCTA` is recorded as -0.783 z-score.
`TTCTCTATTGCTTTCTCTTTGTGCTAG` — result for “fitted relative affinity”: 5.12 z-score.
Under “fitted relative affinity”, `GACGGACTGATTATCCTGACGTGCTAG` is recorded as 0.483 z-score.
`TCATTTCTAATATTCTGACTGTGCTAG` — result for “fitted relative affinity”: 1.4 z-score.

Study 3
Target: RNA binding protein fox-1 homolog 2, RRM domain, GST-SBP tag (RBFOX2, Homo sapiens, UniProt O43251-10, residues 100-194)
Method: RNA Bind-n-Seq
Molecule type: RNA
Medium: in vitro
Tested at: 365 nM
Setting: natural RNA segment, single round, ends assumed
Reference: no-protein control
Reading: higher = stronger binding
All sequences stand within: GGGAGUUCUACAGUCCGACGAUC … UGGAAUUCUCGGGUGCCAA
Target sequence (chain): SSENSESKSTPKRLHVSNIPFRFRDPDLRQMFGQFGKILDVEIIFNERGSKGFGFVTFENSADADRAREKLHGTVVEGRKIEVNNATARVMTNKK
For `AUGUCAUAUUAUUUUGAAAGUACAAAAUAUACUAAAAGAGUGUGUGUGUAUUCACGCAGUUACUCGCUUCCAUUUUUAUGACCUUUCAACUAUAGGUAAUAACUCUUAGA`, “RBNS enrichment (R)” read 0.28.
For `CAUUUUUUUUUUAAAGGCCAUCUGAAAUUCCAUUUGUCAUGGUGGGAAGCAUUUUGGAUAUGAUGCAGGAAAUCUCUUCCUGGAGUCAAAAGUUCCCAAGAGGUCCUGUA`, “RBNS enrichment (R)” read 1.01.
Under “RBNS enrichment (R)”, `UUAACACAGCCUUCCUUCUGCUCCCACCCCAGAAAUCACUGUGAAAUUUCAUGAUUGGCUUAAAGUGAAGGAAAUAAAGGUAAAAUCACUUCAGAUCUCUAAUUAGUCUA` is recorded as 0.349.
`UCACACGCUGUAUGGAAGGGUGUGGGUGUGUGUGAAGGGGCGAGUGGAGACACUGUGUGUAUCUCUAGAUAAGAAGAUAUGCACCACGUUGAAAAUACUCAGUGUAGAUC`: “RBNS enrichment (R)” 0.479.
Under “RBNS enrichment (R)”, `CUUCAGUGAAGAGGACAAAUAGUUUAUUUAAAGCAUUUGUUCCAAUAAAAUAACUAGAGGGAAACUUGGAUGCUAAAAUUCCAUAAGUAGAAAAAUCUUCCUGGCACUUG` is recorded as 0.357.
`GUGGUCCAGGGGCCGCGGAGUGGUUUGGGGGGGAAAAGAGAUUUUUUUCUUCUCUUAAUGGGAAUCGUGAUGGUGUUGAGUUAUUUCACUGGUGGGGUUAAUAUAGCAUG` — result for “RBNS enrichment (R)”: 1.29.
`UUCACCCAGUAUCACAAAGAUGACUUUGUGGGAGGUACUUAGAAUGGGCUAAGGUGGACAGGCUGUGUAAGUUUUAUCAGCUAGCAGACUGAGUGUGGGCUGGAAUUGUU`: “RBNS enrichment (R)” 0.523.
`GUUUCAUCAGAUCUGAUUUCUGAGAGUCUGGGGAUCUGCCAUGGUGGAAAGUGCCCCUCAAAAGCAUUUGUGUGGCCACAUGAACUGGCUGGCACCAGGGGAGUGAAACU`: “RBNS enrichment (R)” 0.439.

Further values, each from its own experiment
Starting sequence: PafA, mature enzyme, eGFP fusion (Elizabethkingia meningoseptica, UniProt Q9KJX5); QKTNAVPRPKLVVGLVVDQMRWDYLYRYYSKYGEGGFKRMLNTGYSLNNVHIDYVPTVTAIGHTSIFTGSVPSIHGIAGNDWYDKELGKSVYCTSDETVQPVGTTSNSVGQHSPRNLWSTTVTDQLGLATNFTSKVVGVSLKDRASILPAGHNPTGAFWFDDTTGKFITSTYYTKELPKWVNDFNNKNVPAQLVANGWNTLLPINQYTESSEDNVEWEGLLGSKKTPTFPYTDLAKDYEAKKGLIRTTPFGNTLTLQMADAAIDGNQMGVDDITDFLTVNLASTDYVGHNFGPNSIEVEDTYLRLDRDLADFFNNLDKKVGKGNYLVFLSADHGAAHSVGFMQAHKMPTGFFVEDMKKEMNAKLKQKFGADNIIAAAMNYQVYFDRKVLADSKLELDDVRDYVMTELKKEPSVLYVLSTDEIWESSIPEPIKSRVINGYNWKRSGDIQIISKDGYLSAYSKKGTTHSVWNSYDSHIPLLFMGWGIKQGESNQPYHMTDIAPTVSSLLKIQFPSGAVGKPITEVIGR
`T247V`: “oxyanion analog dissociation constant” 1.77 µM (tungstate, free oxyanion; microfluidic competitive inhibition; in vitro, cell-free expressed; not given, derived from inhibition constants, unchanged parent 2230 nM; lower = stronger binding).

Excerpt of the above (study 1):
With `UAACUUUACAGGAGGAUCUGAUGGAUAUGGCAGUGGACGUGGAUUUGGGGAUGGCUAUAAUGGGUAUGGAGGAGGACCUGGAGGUGGCAA` the log2 enrichment was -0.818.
`UAGUCACCUACUGCCACCUUCGAAAAACACGGAGAGCACCUACCCAGAGGAGAAGGUAGAUUUGGAGUAAGCCGCCGUCGACAUAAUUCC` has a log2 enrichment of -0.0143.
For `GCAUGAAGUAAAAACAAAUGGAAAUGCUUCGGAUAGUGGCAGGGGUGGGGGUUGCUAAGGAAAGGGUGGGAUGGGAGUGGGUAAAGAGUU`, the log2 enrichment was 0.837.
